Measured values collected from several papers.
Compare with care: the assays were run in different laboratories.

Oc1ccc(C(c2ccc(O)cc2)(C(F)(F)F)C(F)(F)F)cc1 — half-life (female rat, plasma; oral, 110 mg/kg, single dose): 12.8 h
Cc1nc2cccc(OCC(C)(C)C(=O)NC(C)C)c2c(N)c1C(=O)O — half-life (Sprague-Dawley rat Crl:CD(SD), male, plasma; oral gavage, 10 mg/kg, day 7): 0.84 h
CCN1CCN(c2ccc(Nc3cc(N(C)C(=O)Nc4c(Cl)c(OC)cc(OC)c4Cl)ncn3)cc2)CC1 — half-life (LC-MS/MS; juvenile female Crl:WI(Han) rats, plasma; oral gavage, 0.3 mg/kg/day, postnatal day 17): 4.21 h
CNCc1ccc(-c2[nH]c3cc(F)cc4c3c2CCNC4=O)cc1 — half-life (human, plasma; oral, 40 mg once daily, steady state, mean): 9.23 h
Cc1cc(C(=O)NC(C)(C)COc2cccc3c2C(N)=NS(=O)(=O)N3)cc(C)n1 — half-life (female Sprague-Dawley rat, plasma; oral, 10 mg/kg, single dose): 0.749 h
CCCOc1ccc([C@H]2CNC(=O)N2c2ccc3[nH]cnc3c2)cc1 — half-life (human, plasma; oral, 30 mg, single dose, fasted): 2.3 h
C[C@@H]1CCC[C@H](n2cnc(-c3cc(Cl)ccc3-n3cc(Cl)nn3)cc2=O)c2cc(ccn2)-c2c(cnn2C(F)F)NC1=O — half-life (human, plasma; oral, 60 mg, single dose, fasted, healthy volunteers): 9.9 h
CCCC[C@H](NC(C)=O)C(=O)N[C@H]1CCC(=O)NC[C@@H](C(=O)N[C@@H](Cc2c[nH]c3ccccc23)C(N)=O)NC(=O)[C@H](CCCNC(=N)N)NC(=O)[C@@H](Cc2ccccc2)NC(=O)[C@H](Cc2c[nH]cn2)NC1=O — half-life (male Sprague-Dawley rat, plasma; subcutaneous, 5 mg/kg, multiple doses, once daily): 8.78 h
CC(C)(c1ccc(O)cc1)c1ccc(O)cc1 — half-life (GC-MS; exposure tank water with snails, charcoal-filtered tap water; 50 ng/L nominal, 22 °C): 1.06 h
Nc1ccc(-c2nc([C@H]3CCc4cc(-c5cc(Cl)ccc5-n5cnnn5)cc(=O)n43)c(F)[nH]2)c(F)n1 — half-life (human, plasma; oral, 150 mg, single dose, fasted): 16 h
COc1cccc(-c2ccc(NC(=O)C3=C(C(=O)O)CCC3)c(F)c2)c1 — half-life (male human, plasma; oral, 20 mg, single dose, fasted, healthy volunteers): 28 h
C#C[C@]1(CO)O[C@@H](n2cnc3c(N)nc(F)nc32)C[C@@H]1O — half-life (human, plasma; oral, 15 mg, single dose, fasted, healthy volunteers): 51.4 h

Excerpt of the above:
C[C@@H]1CCC[C@H](n2cnc(-c3cc(Cl)ccc3-n3cc(Cl)nn3)cc2=O)c2cc(ccn2)-c2c(cnn2C(F)F)NC1=O — half-life (human, plasma; oral, 60 mg, single dose, fasted, healthy volunteers): 9.9 h
